Measured values pooled from the literature.
“And” joins repeats or separate records; there may be more than shown. ± marks the error that the study gave. ≈ marks a conversion by molar mass, not a printed value.
Nr3c1: Glucocorticoid receptor (Nr3c1, Rattus norvegicus, UniProt P06536)
EPHX2: Bifunctional epoxide hydrolase 2 (EPHX2, Homo sapiens, UniProt P34913)
CHRM2: Muscarinic acetylcholine receptor M2 (CHRM2, Homo sapiens, UniProt P08172)

With `CCCCCSc1nc2c([nH]1)c(=S)n(C)c(=S)n2C` the remaining activity was 79% (Nr3c1; reporter gene, antagonist, MMTV-luciferase; T47D/A1-2; 10 µM, 24 h, with: 5 nM dexamethasone; relative to: maximal activity).
`Cc1ncsc1-c1ccc([C@@H]2CCCCCCNC(=O)C[C@@H]3N=C(c4ccc(cc4)OCCCCCC(=O)N[C@@H](C(C)(C)C)C(=O)N4C[C@H](O)C[C@H]4C(=O)N2)c2c(sc(C)c2C)-n2c(C)nnc23)cc1` — result for “cooperativity factor alpha”: 5.2 (BRD4/VHL, BD2; with elongins B/C (Homo sapiens, UniProt O60885+P40337); ternary complex formation, biolayer interferometry; BRD4 BD2 with VHL-ElonginC-ElonginB).
`CC(C)[C@H](NC(=O)[C@@H]1CCCN1C(=O)[C@H](C)NC(=O)[C@H](CO)NC(=O)[C@H](C)NC(=O)[C@H](CC(N)=O)NC(=O)[C@H](CCC(=O)O)NC(=O)[C@@H](NC(=O)[C@H](CC(=O)O)NC(=O)[C@H](CCCCN)NC(=O)[C@H](C)NC(=O)[C@H](CCC(N)=O)NC(=O)[C@H](Cc1ccccc1)NC(=O)[C@H](C)NC(=O)[C@H](Cc1c[nH]c2ccccc12)NC(=O)[C@H](C)NC(=O)[C@@H](NC(=O)CN)C(C)C)C(C)C)C(=O)O` gave a Km of 0.45 ± 0.17 µM (PCY1 Saponaria vaccaria; substrate, LC/MS; pH 8.5, 30 °C).
Under enzyme activity, `O=C(/C=C/c1ccccc1)OCCCC[P+](c1ccccc1)(c1ccccc1)c1ccccc1` is recorded as “no effect” (Catalase (Rattus norvegicus, UniProt P04762); 10 µM, 15 and 30 min).
Under “amide I band position”, `C=C1C(=O)O[C@@H]2[C@H]3C(CO)=CC(=O)C3=C(C)C[C@H](OC(=O)Cc3ccc(O)cc3)[C@@H]12` is recorded as 1640 cm⁻¹ (MAL12 (Saccharomyces cerevisiae S288c, UniProt P53341); FT-IR; 65.22 µM).
Under “maximum ThT fluorescence”, `O=C(Nc1ccccc1)Nc1cccc2[nH]ccc12` is recorded as 10 ± 2% (Alpha-synuclein (SNCA, Homo sapiens, UniProt P37840); fibril formation, ThT fluorescence kinetics; 100 µM, α-syn 2 µM, plateau phase; relative to: DMSO vehicle).
The IC90 of `NC[C@@H](C(=O)Nc1ccc(-c2cn[nH]c2)cc1)c1ccccc1` is reported as 0.0816 µg/mL (≈ 0.266 µM) (MYLK4 (Homo sapiens, UniProt Q86YV6); cell-free assay, TR-FRET).
`CNc1ccccc1C(=O)O[C@H]1C[C@H](n2cnc3c(N)ncnc32)O[C@@H]1COP(=O)(O)OP(=O)(O)O`: “dissociation rate constant” 1 ± 0.21 s⁻¹ (Unconventional myosin-Va (Gallus gallus, UniProt Q02440, D297C/G292C/I296C/S293C/V295G); stopped-flow FRET, linear fit intercept; 4 °C, with: MgCl2 10 mM).
The potency ratio of `CC12CC3CC(C)(C1)CC(NC(=O)Nc1ccc(C(=O)N4CCC[C@H](C(N)=O)C4)cc1)(C3)C2` is reported as 2 fold (EPHX2; inhibitor, enzyme activity; relative to: S over R enantiomer).
`C=CCn1c(=O)c2ccccc2n2c(SCC(=O)Nc3ccc(NC(C)=O)cc3)nnc12` gave a cooperativity factor of 5.4 (CHRM2; allosteric modulator; with: NMS and EC80 iperoxo).
With `Nc1nc2c(ncn2[C@@H]2O[C@@H]3COP(=O)(O)O[C@H]3[C@H]2O)c(=O)[nH]1` the specific activity was 11 nmol/min/mg (PDE6C (Homo sapiens, UniProt P51160); hydrolysis, substrate, Lumit).
`C=CC(=O)N1C[C@H](C)N(c2nc(OC[C@@]34CCCN3C[C@H](F)C4)nc3c(F)c(-c4ccc(F)c5sc(N)c(C#N)c45)c(C(F)(F)F)cc23)C[C@H]1C` — result for “time to complete inhibition”: no more than 15 min (GTPase KRas, with RAF1 RBD (KRAS, Homo sapiens, UniProt P01116, G12C); RAS-RAF binding, inhibitor, ELISA; MIA PaCa-2; 1 µM).
The koff of `[3H]CC([3H])C(=O)NC1CN(CCCCC2CCN(CC(=O)N3c4ccccc4NC(=O)c4ccccc43)CC2)CCN(CCCOc2nsnc2C2=CCCN(C)C2)C1` (stereo not shown) is reported as 0.00025 ± 1.67e-05 s⁻¹ (CHRM2; dissociation kinetics; CHO cell homogenates; 23 °C, with: 6 at 1000-fold excess).
For `FC(F)(F)Oc1ccc(/N=c2\oc3ccccc3cc2-c2ccccc2)cc1`, “binding free energy” read -11.2 kcal/mol (PTGS1 (Ovis aries, UniProt P05979); enzyme activity, inhibitor; from IC50, T 300 K).
`O=P(O)(O)O[C@@H]1[C@@H](O)[C@H](O)[C@H](O)[C@H](O)[C@H]1OP(=O)(O)O`: “maximal Ca2+ release” 73 ± 7% (Itpr1 (Rattus norvegicus, UniProt P29994); DT40-IP3R1, permeabilized; relative to: ATP-dependent Ca2+ uptake).
For `CC12CC3CC(C)(C1)CC(NC(=O)Nc1ccc(C(=O)N4CCCC(C(=O)NC5CC5)C4)cc1)(C3)C2` (stereo not shown), “lipophilic ligand efficiency” read 6.22 (EPHX2).
The enrichment factor of `NC(=O)C1CCNC(=O)C(CCCNC(=O)c2cnccn2)NC(=O)C(Cc2ccco2)NC(=O)C(CC2CC2)NC(=O)C=CC(=O)N1` (stereo not shown) is reported as 2.7 (MAP2K6 (Homo sapiens, UniProt P52564); DNA-templated library selection; one selection round).
With `CN1C(=O)[C@@H](Cc2ccc(O)cc2)NC(=O)CNC(=O)[C@H](Cc2ccc3ccccc3c2)NC(=O)[C@H](CCCNC(=N)N)NC(=O)[C@H]1CCCNC(=O)c1ccc(CNC(=O)CN2CCN(CC(=O)O)CCN(CC(=O)O)CCN(CC(=O)O)CC2)cc1` [gallium-68 labelled] the tissue uptake was 2.3 ± 0.3 %ID/g (SCID mice, lymphoma xenograft, liver; intravenous, 1 h).
With `CCCC[C@H](C)/C=C(C)/C=C/C(=O)O` the potency shift was 29 fold (TRPA1 (Homo sapiens, UniProt O75762, K868A); calcium influx, fluorescence calcium; K868A mutant; relative to: wild type).
The efficacy of `CCc1c(Cl)cccc1N1CCN(C[C@@H](F)CCNC(=O)c2cc3ccccc3[nH]2)CC1` is reported as ~55% and 55% (DRD3 (Homo sapiens, UniProt P35462); mitogenesis, agonist; CHO; relative to: dopamine and quinpirole).
`CCCCCCCCSc1nc2c([nH]1)c(=O)n(C)c(=O)n2C` gave a remaining activity of 33% (PGR (Homo sapiens, UniProt P06401); reporter gene, antagonist, MMTV-luciferase; T47D/A1-2; 10 µM, 24 h, with: 5 nM progesterone; relative to: maximal activity).
`CSCC[C@H](NC(=O)[C@H](CO)NC(=O)[C@@H](NC(=O)[C@H](CCC(N)=O)NC(=O)[C@@H](CCCNC(=N)N)NC(=O)[C@@H](CCCNC(=N)N)NC(=O)[C@@H](CCCCN)NC(=O)[C@@H](CCCNC(=N)N)NC(C)=O)[C@@H](C)O)C(=O)N[C@H](C(=O)N[C@@H](CC(=O)O)C(=O)N[C@@H](Cc1ccccc1)C(=O)N[C@@H](Cc1ccc(O)cc1)C(=O)N[C@@H](Cc1c[nH]cn1)C(=O)N[C@@H](CO)C(=O)N[C@H](CCCCN)C(=O)N[C@H](CCCNC(=N)N)C(=O)N[C@H](CCCNC(=N)N)C(N)=O)[C@@H](C)O` gave a binding stoichiometry of 0.78 ± 0.02 (PCNA (Homo sapiens, UniProt P12004); isothermal titration calorimetry; concentration not given, pH 7.4, 25 °C, 300 mM NaCl, with: p21 peptide).
For `CCCCCCCCCC(=O)Nc1ccc(OC)nc1C`, the specific activity was 30 pmol/min/µg (Cocaine esterase (CES2, Homo sapiens, UniProt O00748); substrate; 50 µM, pH 8, 37 °C, enzyme purity 4%).
Under activity, `COCC(=O)N[C@@H](Cc1ccc(-c2cccc(OCc3ccccc3)c2)cc1)[C@H](O)[C@@H](O)C(=O)O` is recorded as “inactive” (CDC34, with SCF-Cdc4 (Homo sapiens, UniProt P49427); biochemical; concentration not given).
For `CN(C)C(=O)C1CCN(C(=O)c2ccc(NC(=O)NC34CC5CC(C)(CC(C)(C5)C3)C4)cc2)CC1`, “lipophilic ligand efficiency” read 6.32 (EPHX2).
`N=C(N)NCCC[C@@H]1NC(=O)[C@H](Cc2c[nH]c3ccccc23)NC(=O)[C@@H](CC2CCCCC2)NC(=O)[C@@H]2CCCN2C(=O)[C@@H](NC(=O)CCc2ccccc2)CCCNC1=O` — result for “apparent total clearance (CL/F)”: 0.81 ng/(min·ng/g) (C57BL/6J mice, spinal cord; oral, 1 mg/kg, two-compartment model).
For `Cc1nnc(NC(=O)c2cc([C@@H]3C[C@H]3NC3CCC3)ccc2Br)s1` (relative stereo), “styrene formation rate constant” read roughly 0.04 h⁻¹ (KDM1A (Homo sapiens, UniProt O60341); LC-MS; first-order adduct fragmentation).
`CCSc1nc2c([nH]1)c(=S)n(C)c(=S)n2C` gave a remaining activity of 102% (Nr3c1; reporter gene, antagonist, MMTV-luciferase; T47D/A1-2; 10 µM, 24 h, with: 5 nM dexamethasone; relative to: maximal activity).
`CC(=O)N1CCN(C(=S)c2ccc(-c3cc(Cl)ccc3Cl)o2)CC1` has an Emax of 95% (NPR2 (Homo sapiens, UniProt P20594); HTRF, refers to: cGMP; HEK293 overexpressing GC-B; with: subthreshold CNP; relative to: saturating CNP).
With `CCCCCCCCCCSc1nc2c([nH]1)c(=S)n(C)c(=S)n2C` the remaining activity was 85% (Nr3c1; reporter gene, antagonist, MMTV-luciferase; T47D/A1-2; 10 µM, 24 h, with: 5 nM dexamethasone; relative to: maximal activity).
For `CCCCCCCCCCCCNP(=O)(Oc1ccccc1)O[C@@H]1O[C@H](CO)[C@@H](O)[C@H](O)[C@H]1F` (mixture of isomers), “inactivation rate constant” read 4.22 min⁻¹ (GBA1 (Homo sapiens, UniProt P04062); enzyme activity, irreversible inhibitor; pH 5.5, 37 °C, with: 2,4-dinitrophenyl beta-D-glucopyranoside).
With `CC[C@H](C)[C@H](N)C(=O)N[C@@H](CC(N)=O)C(=O)N1CCC[C@H]1C(=O)N[C@H](C(=O)NCC(=O)N[C@@H](CS)C(=O)N[C@@H](C)C(=O)N[C@@H](CCCNC(=N)N)C(=O)N[C@@H](CO)C(=O)N[C@@H](CCC(=O)O)C(=O)N1CCC[C@H]1C(=O)N[C@@H](CCCCN)C(=O)N[C@H](C(=O)N[C@@H](CC(C)C)C(N)=O)[C@@H](C)CC)[C@@H](C)O` the koff was 0.0077 s⁻¹ (WDR5 (Homo sapiens, UniProt P61964); binding, BLI).
`CC[C@H](C)[C@H](NC(=O)[C@@H]1CCCN1C(=O)CNC(=O)[C@H](CC(N)=O)NC(=O)[C@@H]1CCCN1C(=O)[C@H](CO)NC(=O)[C@H](Cc1ccccc1)NC(=O)[C@H](CC(C)C)NC(=O)[C@H](Cc1ccc(O)cc1)NC(=O)[C@H](CC(N)=O)NC(=O)[C@@H](N)[C@@H](C)O)C(=O)N[C@@H](C)C(=O)N[C@@H](CCCNC(=N)N)C(=O)N[C@@H](C)C(=O)N[C@@H](Cc1c[nH]c2ccccc12)C(N)=O` has a kon of 426000 M⁻¹ s⁻¹ (Ephrin type-B receptor 4, extracellular domain (EPHB4, Homo sapiens, UniProt P54760); SPR; pH 7.4, 25 °C).
The kinact/KI of `O=C(Nc1ccc(OC(F)(F)F)cc1)N1CCC(Cc2cccc(Oc3ccc(C(F)(F)F)cn3)c2)CC1` is reported as 300000 M⁻¹ s⁻¹ (FAAH (Homo sapiens, UniProt O00519); enzyme activity, inhibitor).

A few entries again:
`CCSc1nc2c([nH]1)c(=S)n(C)c(=S)n2C` gave a remaining activity of 102% (Nr3c1; reporter gene, antagonist, MMTV-luciferase; T47D/A1-2; 10 µM, 24 h, with: 5 nM dexamethasone; relative to: maximal activity).
`N=C(N)NCCC[C@@H]1NC(=O)[C@H](Cc2c[nH]c3ccccc23)NC(=O)[C@@H](CC2CCCCC2)NC(=O)[C@@H]2CCCN2C(=O)[C@@H](NC(=O)CCc2ccccc2)CCCNC1=O` — result for “apparent total clearance (CL/F)”: 0.81 ng/(min·ng/g) (C57BL/6J mice, spinal cord; oral, 1 mg/kg, two-compartment model).
